# Experimental data gathered from unrelated publications.
# Numbered parts are unrelated; each lists some results of a single study.
# Sequence of UniProt Q13523 (whole entry, looked up): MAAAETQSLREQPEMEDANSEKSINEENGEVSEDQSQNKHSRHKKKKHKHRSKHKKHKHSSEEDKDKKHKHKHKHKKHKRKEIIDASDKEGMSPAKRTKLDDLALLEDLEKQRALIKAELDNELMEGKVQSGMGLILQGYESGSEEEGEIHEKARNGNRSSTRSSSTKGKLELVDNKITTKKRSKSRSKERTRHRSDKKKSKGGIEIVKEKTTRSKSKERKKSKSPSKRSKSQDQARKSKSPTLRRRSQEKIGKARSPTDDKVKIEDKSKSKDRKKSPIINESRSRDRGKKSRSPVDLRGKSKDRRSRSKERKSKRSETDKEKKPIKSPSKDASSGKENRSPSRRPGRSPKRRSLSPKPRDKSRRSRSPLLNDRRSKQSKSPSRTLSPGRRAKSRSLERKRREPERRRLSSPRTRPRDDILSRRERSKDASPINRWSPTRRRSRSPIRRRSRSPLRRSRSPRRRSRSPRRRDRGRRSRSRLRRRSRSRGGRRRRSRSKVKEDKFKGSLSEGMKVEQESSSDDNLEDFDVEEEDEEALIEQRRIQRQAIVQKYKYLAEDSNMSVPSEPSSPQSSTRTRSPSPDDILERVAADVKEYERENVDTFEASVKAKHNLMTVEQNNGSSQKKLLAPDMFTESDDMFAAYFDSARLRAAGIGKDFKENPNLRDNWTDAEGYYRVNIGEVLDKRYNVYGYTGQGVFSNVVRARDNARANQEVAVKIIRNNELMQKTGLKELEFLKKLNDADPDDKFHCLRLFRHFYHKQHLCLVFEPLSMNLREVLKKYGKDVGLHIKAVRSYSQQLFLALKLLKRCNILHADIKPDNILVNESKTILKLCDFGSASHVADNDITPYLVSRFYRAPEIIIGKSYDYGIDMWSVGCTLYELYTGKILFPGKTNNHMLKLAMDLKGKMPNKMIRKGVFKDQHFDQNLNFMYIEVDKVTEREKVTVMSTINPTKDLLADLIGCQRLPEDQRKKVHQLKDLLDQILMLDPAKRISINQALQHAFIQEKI
# Sequence of UniProt P31152 (whole entry, looked up): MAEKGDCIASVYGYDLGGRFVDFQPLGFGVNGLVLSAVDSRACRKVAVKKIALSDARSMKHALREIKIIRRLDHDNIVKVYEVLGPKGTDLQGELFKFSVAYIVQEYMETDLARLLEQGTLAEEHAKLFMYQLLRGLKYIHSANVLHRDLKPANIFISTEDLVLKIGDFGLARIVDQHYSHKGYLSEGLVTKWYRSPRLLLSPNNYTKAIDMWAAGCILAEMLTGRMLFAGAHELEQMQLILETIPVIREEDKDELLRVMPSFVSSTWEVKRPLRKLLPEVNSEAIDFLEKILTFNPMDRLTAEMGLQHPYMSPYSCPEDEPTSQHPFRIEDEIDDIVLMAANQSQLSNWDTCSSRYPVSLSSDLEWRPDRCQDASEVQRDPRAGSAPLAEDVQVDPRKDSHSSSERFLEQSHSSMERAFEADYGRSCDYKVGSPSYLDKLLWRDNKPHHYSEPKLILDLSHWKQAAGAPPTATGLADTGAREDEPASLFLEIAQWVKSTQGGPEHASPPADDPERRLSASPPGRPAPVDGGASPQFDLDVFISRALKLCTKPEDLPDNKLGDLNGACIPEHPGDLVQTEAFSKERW
# Sequence of UniProt Q99755 (whole entry, looked up): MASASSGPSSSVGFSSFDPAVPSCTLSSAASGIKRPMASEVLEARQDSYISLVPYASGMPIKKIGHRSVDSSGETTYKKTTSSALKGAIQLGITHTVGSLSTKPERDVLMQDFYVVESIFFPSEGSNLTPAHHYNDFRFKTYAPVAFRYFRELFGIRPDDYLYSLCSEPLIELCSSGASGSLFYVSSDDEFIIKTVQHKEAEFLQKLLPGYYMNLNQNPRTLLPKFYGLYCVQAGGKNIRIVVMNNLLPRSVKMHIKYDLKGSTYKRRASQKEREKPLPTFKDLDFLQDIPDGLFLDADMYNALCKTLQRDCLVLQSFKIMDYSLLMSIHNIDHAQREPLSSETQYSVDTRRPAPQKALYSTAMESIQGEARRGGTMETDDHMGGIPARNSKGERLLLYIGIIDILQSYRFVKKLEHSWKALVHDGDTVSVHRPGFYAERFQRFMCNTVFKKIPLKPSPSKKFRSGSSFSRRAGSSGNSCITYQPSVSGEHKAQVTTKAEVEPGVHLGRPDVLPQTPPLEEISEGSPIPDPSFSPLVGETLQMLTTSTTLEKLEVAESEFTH
# Sequence of UniProt P07333 (whole entry, looked up): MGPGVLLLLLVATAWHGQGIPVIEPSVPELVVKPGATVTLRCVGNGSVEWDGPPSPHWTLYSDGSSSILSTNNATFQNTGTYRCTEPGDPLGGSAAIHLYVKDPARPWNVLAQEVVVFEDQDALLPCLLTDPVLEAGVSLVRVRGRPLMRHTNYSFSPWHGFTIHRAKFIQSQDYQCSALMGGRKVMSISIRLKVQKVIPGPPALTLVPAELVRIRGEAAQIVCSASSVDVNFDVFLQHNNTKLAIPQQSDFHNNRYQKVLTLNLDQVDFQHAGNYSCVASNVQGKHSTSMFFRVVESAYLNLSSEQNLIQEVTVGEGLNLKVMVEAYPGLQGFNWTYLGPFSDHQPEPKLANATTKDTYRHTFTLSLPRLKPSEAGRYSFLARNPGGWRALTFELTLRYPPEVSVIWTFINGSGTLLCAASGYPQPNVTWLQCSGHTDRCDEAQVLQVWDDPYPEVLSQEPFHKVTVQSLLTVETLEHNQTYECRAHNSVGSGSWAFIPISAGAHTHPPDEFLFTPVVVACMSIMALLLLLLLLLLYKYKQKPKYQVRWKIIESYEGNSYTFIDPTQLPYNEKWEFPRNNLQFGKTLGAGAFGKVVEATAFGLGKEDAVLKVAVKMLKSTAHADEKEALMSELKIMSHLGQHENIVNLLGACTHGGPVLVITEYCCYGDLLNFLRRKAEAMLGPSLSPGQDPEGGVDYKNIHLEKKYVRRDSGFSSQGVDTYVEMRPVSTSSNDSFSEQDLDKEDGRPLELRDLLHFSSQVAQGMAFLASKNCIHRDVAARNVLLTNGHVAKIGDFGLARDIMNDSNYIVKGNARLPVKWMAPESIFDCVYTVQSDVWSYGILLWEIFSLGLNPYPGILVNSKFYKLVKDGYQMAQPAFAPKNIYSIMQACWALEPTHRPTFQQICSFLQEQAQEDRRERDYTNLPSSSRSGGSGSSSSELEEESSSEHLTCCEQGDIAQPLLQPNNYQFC
# Sequence of UniProt Q00535 (whole entry, looked up): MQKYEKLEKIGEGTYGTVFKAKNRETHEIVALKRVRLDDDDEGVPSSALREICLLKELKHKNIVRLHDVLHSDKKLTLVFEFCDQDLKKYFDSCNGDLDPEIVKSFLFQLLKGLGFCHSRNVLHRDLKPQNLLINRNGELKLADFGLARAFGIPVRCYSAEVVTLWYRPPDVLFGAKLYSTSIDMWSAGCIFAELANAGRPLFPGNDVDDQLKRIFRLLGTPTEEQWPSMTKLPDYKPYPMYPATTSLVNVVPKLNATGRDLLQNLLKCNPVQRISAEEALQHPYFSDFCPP

# Block 1
# SMILES: NS(=O)(=O)c1cc(NC(=O)C2(c3ccccc3Cl)CC2)ccc1Oc1cccc(Cl)c1
# Observed: cell-free assay
# Method: competition with immobilised ligand
# Tested at: 1 µM
target,remaining binding [%]
"Phosphatidylinositol 4-phosphate 5-kinase type-1 alpha (PIP5K1A, Homo sapiens, UniProt Q99755)",100
"Serine/threonine-protein kinase PRP4 homolog (PRPF4B, Homo sapiens, UniProt Q13523)",68
"Cyclin-dependent kinase 5 (CDK5, Homo sapiens, UniProt Q00535)",74
"Macrophage colony-stimulating factor 1 receptor (CSF1R, Homo sapiens, UniProt P07333)",85
"Mitogen-activated protein kinase 4 (MAPK4, Homo sapiens, UniProt P31152)",87

# Block 2
# Target: Protein kinase C iota type (PRKCI, Homo sapiens, UniProt P41743)
# Observed: enzyme activity
# Action: inhibitor
# Tested at: 0.5 µM
# Reference: control
# Residues (P41743 1-596): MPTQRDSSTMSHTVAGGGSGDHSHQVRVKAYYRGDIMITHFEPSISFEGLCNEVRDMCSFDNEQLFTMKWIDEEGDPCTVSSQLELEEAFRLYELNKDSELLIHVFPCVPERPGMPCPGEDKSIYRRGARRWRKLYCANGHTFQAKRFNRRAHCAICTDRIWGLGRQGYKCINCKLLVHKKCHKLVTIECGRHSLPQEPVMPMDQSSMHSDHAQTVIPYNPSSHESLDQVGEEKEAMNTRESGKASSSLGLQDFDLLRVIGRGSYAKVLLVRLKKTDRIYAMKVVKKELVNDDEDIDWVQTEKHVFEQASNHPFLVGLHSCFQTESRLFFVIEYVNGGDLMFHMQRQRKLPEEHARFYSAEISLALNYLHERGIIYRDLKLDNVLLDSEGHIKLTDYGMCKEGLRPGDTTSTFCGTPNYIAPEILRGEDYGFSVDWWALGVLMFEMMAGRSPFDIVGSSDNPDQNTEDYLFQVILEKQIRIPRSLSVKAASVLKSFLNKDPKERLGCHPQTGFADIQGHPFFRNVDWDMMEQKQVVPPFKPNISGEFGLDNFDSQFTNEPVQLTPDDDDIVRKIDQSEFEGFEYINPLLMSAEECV
SMILES,remaining activity [%]
CO[C@H]1C[C@@H]2CC[C@@H](C)[C@@](O)(O2)C(=O)C(=O)N2CCCC[C@H]2C(=O)O[C@H]([C@H](C)C[C@@H]2CC[C@@H](O)[C@H](OC)C2)CC(=O)[C@H](C)/C=C(\C)[C@@H](O)[C@@H](OC)C(=O)[C@H](C)C[C@H](C)/C=C/C=C/C=C/1C,99.1
COc1ccc(OC)c2c(=S)c3ccccc3[nH]c12,99.3
Nc1[nH]nc2nc3ccccc3nc12,103
NCCNc1ncc(C(N)=O)c(Nc2cccc(C(F)(F)F)c2)n1,98.7
CNC(=O)c1cc(Oc2ccc(NC(=O)Nc3ccc(Cl)c(C(F)(F)F)c3)cc2)ccn1,89.9
CCOC(=O)c1c(C)[nH]c(/C=C2\C(=O)Nc3ccccc32)c1C,92.9
C#Cc1cccc(Nc2ncnc3cc(OCCOC)c(OCCOC)cc23)c1,99
N#CC(C#N)=C(N)/C(C#N)=C/c1ccc(O)cc1,97.4
COc1cc2nccc(Oc3ccc(NC(=S)NC(=O)c4ccccc4C)cc3)c2cc1OC,99.9
Oc1ccc(-c2nc(-c3ccncc3)c(-c3ccc(F)cc3)[nH]2)cc1,93.4
O=C1NC(=O)C(c2cn(CCCn3ccnc3)c3ccccc23)=C1Nc1ccccc1,90.7
O=C1NC(=O)C(c2cn(CCCO)c3ncccc23)=C1c1cnccn1,87
Nc1ccc2ncnc(NCCc3ccc(Oc4ccccc4)cc3)c2c1,103
CC(C)[C@H](CO)Nc1nc(Nc2cc(N)cc(Cl)c2)c2ncn(C(C)C)c2n1,89.6
Cc1nc(-c2ccccc2)c(-c2ccncc2)o1,101

# Block 3
# Target: Sal-like protein 4, full length isoform A (SALL4, Homo sapiens, UniProt Q9UJQ4, residues 1-1053)
# Sequence of UniProt Q9UJQ4 (whole entry, looked up): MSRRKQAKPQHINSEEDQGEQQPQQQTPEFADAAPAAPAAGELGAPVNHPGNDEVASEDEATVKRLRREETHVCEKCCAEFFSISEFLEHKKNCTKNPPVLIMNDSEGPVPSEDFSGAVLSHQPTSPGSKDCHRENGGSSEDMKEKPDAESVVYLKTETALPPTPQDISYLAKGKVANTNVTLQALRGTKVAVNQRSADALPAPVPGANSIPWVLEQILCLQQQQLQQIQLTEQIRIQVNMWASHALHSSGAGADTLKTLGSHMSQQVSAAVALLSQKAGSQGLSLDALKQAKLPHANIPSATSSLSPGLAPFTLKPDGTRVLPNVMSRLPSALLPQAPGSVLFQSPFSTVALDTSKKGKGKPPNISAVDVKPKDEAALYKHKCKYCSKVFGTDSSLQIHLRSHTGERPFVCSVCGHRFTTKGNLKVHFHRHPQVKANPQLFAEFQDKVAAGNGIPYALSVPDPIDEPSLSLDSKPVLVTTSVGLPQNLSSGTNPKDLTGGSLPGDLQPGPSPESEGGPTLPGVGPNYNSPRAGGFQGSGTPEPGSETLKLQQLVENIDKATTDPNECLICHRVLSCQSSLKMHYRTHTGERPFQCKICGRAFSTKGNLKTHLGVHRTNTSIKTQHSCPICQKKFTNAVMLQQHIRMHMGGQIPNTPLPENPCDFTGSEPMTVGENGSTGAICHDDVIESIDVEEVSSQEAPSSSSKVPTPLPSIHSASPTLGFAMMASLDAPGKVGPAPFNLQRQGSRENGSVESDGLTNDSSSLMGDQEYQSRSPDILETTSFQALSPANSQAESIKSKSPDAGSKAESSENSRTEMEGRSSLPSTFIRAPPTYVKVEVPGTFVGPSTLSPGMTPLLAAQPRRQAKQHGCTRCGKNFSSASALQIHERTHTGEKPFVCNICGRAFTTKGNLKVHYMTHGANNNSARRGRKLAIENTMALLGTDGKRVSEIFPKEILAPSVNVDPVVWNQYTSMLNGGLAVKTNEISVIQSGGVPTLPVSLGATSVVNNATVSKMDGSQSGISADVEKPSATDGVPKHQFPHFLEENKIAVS
# Method: universal PBM
# Form: double-stranded DNA, one strand shown
# Medium: in vitro
# Tested at: 600 nM
# Notes: 8-mer, flanks averaged, mean of replicates
# Direction: higher = stronger binding
Strand,E-score
AGGAGCAT,-0.0109
AACATCTC,0.107
CGCACTAA,-0.012
ATTCTTAG,0.105
CAGCTGAA,-0.0579
ACACTTTG,0.149
AATTATTC,0.402
CGTACGGC,-0.11

# Mixed results
# Method: cross-linking MS
Substance,partner,test system,conditions,quantity,value
"ESYT2 (Homo sapiens, UniProt A0FGR8)","ESYT1 (Homo sapiens, UniProt Q9BSJ8)",cell fractions,added: DSSO,cross-linked residues,K578 to K189
"MDH2 (Homo sapiens, UniProt P40926)","MAP1B (Homo sapiens, UniProt P46821)",cell fractions,added: DHSO,cross-linked residues,E232 to D648
"CLTA (Homo sapiens, UniProt P09496)","CLTC (Homo sapiens, UniProt Q00610)",,hits only,interaction screen,cross-linked
"NDUFS6 (Homo sapiens, UniProt O75380)","RIPOR1 (Homo sapiens, UniProt Q6ZS17)",cell fractions,added: DSSO,cross-linked residues,T40 to S1104
